Measured values gathered from unrelated publications.
Protocols differ between the studies behind these lines.
Target: Phosphatidylinositol 4,5-bisphosphate 3-kinase catalytic subunit alpha isoform (PIK3CA, Homo sapiens, UniProt P42336)
Chain of UniProt P42336 (whole entry, looked up): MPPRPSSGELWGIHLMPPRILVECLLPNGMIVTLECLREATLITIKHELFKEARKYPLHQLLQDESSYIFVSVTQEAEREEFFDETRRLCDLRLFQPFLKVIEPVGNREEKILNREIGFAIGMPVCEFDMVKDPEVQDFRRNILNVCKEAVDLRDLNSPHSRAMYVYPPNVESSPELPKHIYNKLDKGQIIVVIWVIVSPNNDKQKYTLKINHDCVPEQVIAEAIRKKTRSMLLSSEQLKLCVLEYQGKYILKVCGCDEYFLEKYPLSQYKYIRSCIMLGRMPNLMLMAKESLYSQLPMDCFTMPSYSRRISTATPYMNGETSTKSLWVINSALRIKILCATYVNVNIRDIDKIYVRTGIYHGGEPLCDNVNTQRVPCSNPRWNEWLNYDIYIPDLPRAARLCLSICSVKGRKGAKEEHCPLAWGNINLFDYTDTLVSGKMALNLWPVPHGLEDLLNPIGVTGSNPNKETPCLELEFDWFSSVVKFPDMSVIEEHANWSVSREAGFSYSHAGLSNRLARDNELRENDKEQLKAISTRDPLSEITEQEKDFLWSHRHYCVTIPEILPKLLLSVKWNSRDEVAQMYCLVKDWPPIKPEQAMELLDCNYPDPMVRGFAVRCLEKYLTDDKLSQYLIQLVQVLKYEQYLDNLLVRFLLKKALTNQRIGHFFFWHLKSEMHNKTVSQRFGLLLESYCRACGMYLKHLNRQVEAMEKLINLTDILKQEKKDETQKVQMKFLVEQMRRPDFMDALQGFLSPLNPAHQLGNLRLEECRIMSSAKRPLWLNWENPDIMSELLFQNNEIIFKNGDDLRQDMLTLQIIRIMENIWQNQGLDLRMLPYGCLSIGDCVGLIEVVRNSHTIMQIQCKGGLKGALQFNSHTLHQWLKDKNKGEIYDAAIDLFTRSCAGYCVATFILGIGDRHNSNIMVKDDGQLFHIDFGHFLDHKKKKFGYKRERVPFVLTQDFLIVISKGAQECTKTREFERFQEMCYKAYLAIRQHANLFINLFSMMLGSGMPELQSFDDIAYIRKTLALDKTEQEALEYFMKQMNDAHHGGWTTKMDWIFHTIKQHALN

Structure (SMILES)	assay	measurement	result
Cc1nc2ccc(C(=O)N[C@@H](Cc3ccc(C#Cc4ccc5nccnc5c4)cc3)C(=O)NCCC(=O)N[C@@H](CC(=O)N[C@@H](CCCCNC(=S)Nc3ccc4c(c3)C(=O)OC43c4ccc(O)cc4Oc4cc(O)ccc43)C(=O)O)C(=O)O)cc2nc1C	binding, SPR	Kd	915 nM
COc1ccccc1/C=C1\C(=O)N(C)c2ccc(N(C)c3nc(C)nc4ccccc34)cc21	enzyme activity, inhibitor, ADP detection	IC50	13.2 nM
Nc1ncc(-c2nc(N3CCOCC3)nc(N3CCN(C(=O)CCC(=O)NCCCCCCCCCCCCNc4cccc5c4C(=O)N(C4CCC(=O)NC4=O)C5=O)CC3)n2)c(C(F)F)n1 (stereo not shown)	ligand displacement, TR-FRET	Ki	9.84 nM
CN1C(=O)/C(=N\c2ccc(Cl)cc2Br)c2ccccc21	enzyme activity, inhibitor, ADP detection	IC50	67 nM
COc1ccccc1/C=C1\C(=O)Nc2ccc(Nc3nc(C)nc4ccccc34)cc21	enzyme activity, inhibitor, ADP detection	IC50	20.7 nM
Nc1ncc(-c2nc(N3CCOCC3)nc(N3CCN(C(=O)CCC(=O)NCCOCCOCCOCC(=O)Nc4cccc5c4C(=O)N(C4CCC(=O)NC4=O)C5=O)CC3)n2)c(C(F)F)n1 (stereo not shown)	ligand displacement, TR-FRET	Ki	4.99 nM
CN(C)c1ccc(CCC(=O)N2C(=O)C3(NC(c4ccc(F)cc4)C4(C(=O)Nc5ccccc54)N3Cc3ccc(F)cc3)c3ccccc32)cc1 (stereo not shown)	enzyme activity, inhibitor, ADP detection	IC50	419 nM
Nc1ncc(-c2nc(N3CCOCC3)nc(N3CCN(C(=O)CCC(=O)N4CCC(CC5CCN(c6cc7c(cc6F)C(=O)N(C6CCC(=O)NC6=O)C7=O)CC5)CC4)CC3)n2)c(C(F)F)n1 (stereo not shown)	ligand displacement, TR-FRET	Ki	1.16 nM
O=C1/C(=N\c2ccc(Cl)cc2)c2ccccc2N1Cc1ccccc1	enzyme activity, inhibitor, ADP detection	IC50	64.2 nM
COc1ccccc1/C=C1\C(=O)N(C)c2ccc(Nc3nc(C)nc4ccccc34)cc21	enzyme activity, inhibitor, ADP detection	IC50	19.3 nM

For quick reference, copied from above:
Structure (SMILES)	assay	measurement	result
COc1ccccc1/C=C1\C(=O)Nc2ccc(Nc3nc(C)nc4ccccc34)cc21	enzyme activity, inhibitor, ADP detection	IC50	20.7 nM
